Experimental data collected from several papers.
Numbered parts are unrelated; each lists some results of a single study.

Series 1
Target: Phosphate system positive regulatory protein PHO4, full length, GST-tagged (PHO4, Saccharomyces cerevisiae, UniProt P07270, residues 1-312)
Technique: competition protein-binding microarray
Molecule type: double-stranded DNA, one strand shown
Sample: in vitro
Concentration: 2 µM
Setting: whole 60-bp probe, lowest competitor level
With: Cbf1 competitor, 0.05 µM
Reading: higher = stronger binding
All sequences stand within: … GTCTTGATTCGCTTGACGCTGCTG
Residues (chain): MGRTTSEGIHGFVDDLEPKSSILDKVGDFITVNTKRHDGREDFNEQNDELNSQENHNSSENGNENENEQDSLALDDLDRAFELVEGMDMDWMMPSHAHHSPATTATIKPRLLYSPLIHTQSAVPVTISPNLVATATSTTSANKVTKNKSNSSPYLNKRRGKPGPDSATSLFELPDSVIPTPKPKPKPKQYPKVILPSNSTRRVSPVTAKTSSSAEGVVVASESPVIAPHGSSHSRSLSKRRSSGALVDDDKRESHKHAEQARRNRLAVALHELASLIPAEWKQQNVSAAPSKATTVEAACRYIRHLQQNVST
Strand	fluorescence intensity
AAAGCGGTAATTTGCGCAGTGGGTGCAGATATCTAT	3780 a.u.
AGCGCCTGCGCCCACCACGTGCTGGCAAGAATTGGG	17400 a.u.
AAGGACTCTAACTGGCACGTCTGGTATAGCGGACAG	6070 a.u.
GTCTTGTCTCATTTTCACGTGTATTTCCCCACTTCA	11800 a.u.
AAAGCGGTAATTTGTCACCGAACTTCACATATCTAT	3160 a.u.
TGCGCAACAACTTGGCACGTGGGTGTATGTCTAGAA	17000 a.u.

Series 2
Target: Protein C-ets-1 (ETS1, Homo sapiens, UniProt P14921, residues 1-441, full length assumed)
Technique: protein-binding microarray
Molecule type: double-stranded DNA, one strand shown
Sample: in vitro
Concentration: not given
Setting: k-mer, scored over probes, only values ≥0.25
Reading: higher = stronger binding
Target sequence (chain): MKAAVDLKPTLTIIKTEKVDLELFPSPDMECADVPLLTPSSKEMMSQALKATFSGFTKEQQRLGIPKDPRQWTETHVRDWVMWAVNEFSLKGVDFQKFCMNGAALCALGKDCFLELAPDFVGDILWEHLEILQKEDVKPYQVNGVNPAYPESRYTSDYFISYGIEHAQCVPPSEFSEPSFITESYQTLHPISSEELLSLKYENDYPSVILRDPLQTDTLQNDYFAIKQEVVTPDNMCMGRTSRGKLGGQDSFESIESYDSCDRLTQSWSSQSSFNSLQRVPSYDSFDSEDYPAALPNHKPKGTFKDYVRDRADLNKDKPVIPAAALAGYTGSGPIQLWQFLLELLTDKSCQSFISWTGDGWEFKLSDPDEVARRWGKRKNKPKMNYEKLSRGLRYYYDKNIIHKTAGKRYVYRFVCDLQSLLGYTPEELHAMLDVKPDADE
Strand	E-score
ACTGCCGG	0.278
ACCGGTAA	0.339
CAGGATGC	0.466
GCAGGAAC	0.379
ACGCCGGA	0.395
CCGGTAGA	0.258

Series 3
Target: Sal-like protein 4, full length isoform B (SALL4, Homo sapiens, UniProt Q9UJQ4-2, residues 1-616)
Technique: universal PBM
Molecule type: double-stranded DNA, one strand shown
Sample: in vitro
Concentration: not given
Setting: 8-mer, flanks averaged, mean of replicates
Reading: higher = stronger binding
Residues (chain): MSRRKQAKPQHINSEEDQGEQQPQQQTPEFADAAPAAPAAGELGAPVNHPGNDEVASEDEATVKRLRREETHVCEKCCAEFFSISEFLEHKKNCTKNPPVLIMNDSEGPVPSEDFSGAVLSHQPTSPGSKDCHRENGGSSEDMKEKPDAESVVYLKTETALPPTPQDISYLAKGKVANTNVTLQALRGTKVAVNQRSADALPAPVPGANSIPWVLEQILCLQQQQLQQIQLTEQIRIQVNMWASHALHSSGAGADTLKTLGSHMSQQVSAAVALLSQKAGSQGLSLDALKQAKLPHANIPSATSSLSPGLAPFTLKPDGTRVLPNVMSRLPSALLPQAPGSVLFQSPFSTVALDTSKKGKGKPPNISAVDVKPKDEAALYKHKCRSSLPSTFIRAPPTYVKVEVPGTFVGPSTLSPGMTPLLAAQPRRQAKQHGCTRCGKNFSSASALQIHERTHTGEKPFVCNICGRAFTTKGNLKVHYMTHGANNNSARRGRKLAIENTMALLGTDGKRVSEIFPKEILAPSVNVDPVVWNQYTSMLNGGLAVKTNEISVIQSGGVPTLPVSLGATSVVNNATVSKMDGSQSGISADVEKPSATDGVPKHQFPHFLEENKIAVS
Strand	E-score
CCCTGAAA	0.036
AGCCGCCT	-0.32
CATCTGAG	-0.0965
GACGGGGC	-0.295
ATGAATTA	0.364
TCGGTTCA	-0.0563
CCCCATAG	-0.0826
CGTCTCGC	-0.239

Other studies, line by line
Substance	target	test	system	conditions	how to read	quantity	result
PhoQ, residues 284 288 289 292 302 303 SSCLAV	PhoP, residues 12 14 15 18 19 LHHSG (Escherichia coli, UniProt P23836)	Sort-seq, measured: YFP reporter	E. coli	PhoQ-PhoP variant library, with: 10 µM Mg2+	baseline: high Mg2+ state, higher = stronger signaling	fold induction	7.51

Repeated from above (series 1):
Strand	fluorescence intensity
TGCGCAACAACTTGGCACGTGGGTGTATGTCTAGAA	17000 a.u.
AAAGCGGTAATTTGCGCAGTGGGTGCAGATATCTAT	3780 a.u.
AAAGCGGTAATTTGTCACCGAACTTCACATATCTAT	3160 a.u.
